# Results collected from several papers.
# Each numbered part is a random draw from the data of one study; scales do not carry over between parts.

# Block 1
# Target: RNA binding protein fox-1 homolog 2, RRM domain, GST-SBP tag (RBFOX2, Homo sapiens, UniProt O43251-10, residues 100-194)
# Method: RNA Bind-n-Seq
# Form: RNA
# Matrix: in vitro
# Tested at: 365 nM
# Setting: natural RNA segment, single round, ends assumed
# Reference: no-protein control
# Reading: higher = stronger binding
# Constant ends, left off below: GGGAGUUCUACAGUCCGACGAUC … UGGAAUUCUCGGGUGCCAA
# Residues (chain): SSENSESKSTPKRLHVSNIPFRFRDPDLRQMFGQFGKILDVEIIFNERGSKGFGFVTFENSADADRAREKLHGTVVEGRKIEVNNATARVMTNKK
Sequence,RBNS enrichment (R)
CUGAAACCUCUCAGCUGUUGAUCUCACAGCAGCUAAAGGGUUGUGCCAAACAUUUUAUUAAGAAAGUAAAGCCCAGAUUUGAAUGGGGGUUUUCCCUAGGCCUUAUAGUA,0.968
AUUGGGCAGGAGGCCACCAUCAUUUCUCCUCAGAAGCAAACCUCAGUGCCUGAGACUUUCCUGCCACGCUGCAGACAGUGGCAGUUGGUAGCAUGGGUGGUUCAUCAGAG,1
GGGGAGUAGGUCAGUGUCAACUAACAAGCCCUGCCAGGGGCCACUGCCGCUCCUCUGGUCACAGUCCACGCAGGCCAGCCCUGGUUUCUGGAAAGAGGCCUCCCUCCCUC,0.297
AGUGCAGUAAACGUUUGUACCCAAGUCCUCACCACCAGUCAUGAGUUGGCCUGUCACUUAAGUCAUUUCUCAACAAUGGCACUCACAAAGAGCUCCACAAUCAAGAUGGC,0.379
UUUGUAUAUAAUGUCAUUUUUACGGAAACCCUUUCGGCGUGCAUAAGGAAUCACUGUGUACAAACUGGCCAAGUGCUUCUGUAGAUAACGUCAGUGGAGUAAAUAUUCGA,0.432
UGGCAGAUGUCAGGGAGGAAUAGGGUAGCUGCUUUUCAUUCCUCCUGCUUGACAAUAAUUCCCUUCCCCCAAAAUGAGCAGUGUAGGCAAGAAAAUUCUAGCCAUGACCA,0.793
UUUAAAAUACCUUCACAAGUGAACAUUACACACAGAAGUUCAUUUGGUUUUCCUUUGUUUUAUGGUGCAUAUAGCAAUAAAGACCCCCCUCCACCCUGCAACCCCCAUCC,0.855
UCACUGUGACCUUGAGAAGAUUCUUCCCAUUCUCCAUUUGUUAUCUGGGAACUUAUUAAAUGGAAACUGAAACUACUGCACCAUUUAAAAACAGGCAGCUCAUAAGAGCC,0.487
GGGGUUUGUUUUAGUUUUCUUUAGUGAAUUUAUGCUGUUUUGGGGGGCGGAUUGAGAAGAAUCUUCCGUAGCCUGAGCUGUCCCUCCUGUUUUGACGGCACAUGUGCCAG,1.24
GUGAGUGUCUUACCCCUUUCCUAUACUUUCUUGUUAUCCAUAUCAUUCUUUUGUGAGUUUUGCAGCAGUCUUGAAUAAUACAGAUUAUAACUACUGAAAGGGGAACCUUC,0.385
ACCGGGGUUUCUACUCCUGUACCCUCUGCAGGUGGAGAGAGAGAAGCUGGGCCCAGUUUGGCCAUGCCUGCUGGCACAGACGCCUUAACUGUGUGGAUGACUGUGUGACU,0.291
UGGCUUUACUGUUGGAAGUUGUCUAUUUCAACCUCAGAGUUUCCUAAUAUGGCGCUCCUGAUCUAUCUUACUCAAGUGCCCUCCCAUAUGUAUACCCCAACAUCUUUUCC,0.702

# Block 2
# Target: RING finger protein unkempt homolog, zinc fingers 1-6, GST-SBP tag (UNK, Homo sapiens, UniProt Q9C0B0, residues 30-357)
# Method: RNA Bind-n-Seq
# Form: RNA
# Matrix: in vitro
# Tested at: not given
# Setting: RNA with constant flanks, ends assumed
# Reference: input RNA pool
# Reading: higher = stronger binding
# Constant ends, left off below: GGGAGUUCUACAGUCCGACGAUC … CAACAGAGGAUUGAGCAUCA
# Construct (chain): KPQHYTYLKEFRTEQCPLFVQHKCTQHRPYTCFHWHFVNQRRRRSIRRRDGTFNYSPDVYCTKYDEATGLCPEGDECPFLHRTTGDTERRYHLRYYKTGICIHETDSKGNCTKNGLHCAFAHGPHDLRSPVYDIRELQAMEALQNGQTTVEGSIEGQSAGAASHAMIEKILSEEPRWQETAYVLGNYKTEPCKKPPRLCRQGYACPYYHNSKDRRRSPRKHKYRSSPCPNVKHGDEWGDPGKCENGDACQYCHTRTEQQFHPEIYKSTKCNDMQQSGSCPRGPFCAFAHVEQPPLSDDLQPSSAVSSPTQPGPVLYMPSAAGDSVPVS
Sequence,bound/input enrichment
AAUAUCAGUGUUGGACGUUAAUGCCCACUUUUCUUAUUCUUACUCAGCCCCUUUUCCUCCCUCCGGAGCAUUGGUCCUCUGUUGUCCAUUUUUAUCACCAGAUGUUUUCCACUGAAGCAU,1.5 ratio
UGUUGUGACCCAUUUAACAUACACAAGAAAUUAGCCAAAAAAAAUUUGCAUGUAAUUGACUCCGAUGAUGCCACUUUUCUGAGUGCUAAAUUUGGAAGACAGCUUGUACCUGGUUGGAAG,2.61 ratio
CUCCAAGUUCGAAGCAUUCAGCAAGUGGUGGCAAGGCAGAGCCACCAGAAGAGGGCACCCCGUUUCCAUGACAAAUAUGGGAAUGCUAUAUUAGCAGGUGGAGCCAUCUUCUGUGUUUCU,0.164 ratio
GCGGUCCCUACAGUCCUGGUGACUCCCUUAGGUGCCCUUGGAGUACCGUUUGGGUCCAUUUCCGCUUCUUACCUUCUGAAGGAAAAGCUCAACAUCUUGGGCAAGUUGGGCUGUCUGCUA,0.581 ratio
CUUGAAUGGCUUAGGGCUCAACCAGACUGUUGAUCUCCUCAUGCAAGAGUCAGGAUGUCGUUCCGAACAUCCUUCUGCUACCAAAUUCCGAAAUCAUGUCAUGGAAGGAGACUGGGAUAA,0.0648 ratio
UCCCCUUAUGACCAGGCAGCUUGGAUCUUAAAAGCAAGAGCGCUAACAGAAAUGGUAUACACCGAUGAAAUUGAUGUAGAUCAGGAAGGAAUUGCAGAAAUGAUGCUGGAUGAAAAUGCU,0.262 ratio
GAACGAGAAAUGCAAAACCUCAGUCAACAUGGUAGAAAAAAUAAUUGGCCACCUCUUCCCCGCAAUUUUCCUGUCGGACCUUGUUUCUAUCAGGAUUUUUCUGUAGACAUUCCUGUAGAA,1.91 ratio
GAGCUGCAGGAACCAGACUGGGGGCGAGCUGAGCACCUGUAGUCAAUCACACGCAGCUUUCCGGUUUGUUUGAAUAAGAGAUCUGACCUGACCGGCCCAACUGUACAACUCUUCAAGGAA,0.261 ratio
GAUGAUGUAGCAGAAGCAGAUAUAAUUUCUACAGUAGAAUUUAAUCAUUCUGGAGAAUUACCCGCAACAGGAGAUAAAGGUGGUAGAGUUGUCAUCUUUCAACAGGAGCAGGAGAACAAA,0.436 ratio
CCUCUGGCCACUUAUGCCCCUGUCAUCUCUGCUGAGAAAGCCUACCAUGAGCAGCUUACAGCCGCAGAGAUCACCAAUGCCUGCUUUGAGCCAGCCAACCAGAUGGUGAAAUGUGACCCU,0.115 ratio
CUUAAUUUUCUUUCUUGUUCGGUACCUACAUUGGAACCAUCAAAAACAAUUAUUUCAGUAAACCGCCGCCAUGAGGGAAAUCGUGCACAUCCAGGCCGGACAGUGUGGCAACCAGAUCGG,0.2 ratio

# Block 3
# Target: Phosphate system positive regulatory protein PHO4, full length, GST-tagged (PHO4, Saccharomyces cerevisiae, UniProt P07270, residues 1-312)
# Method: competition protein-binding microarray
# Form: double-stranded DNA, one strand shown
# Matrix: in vitro
# Tested at: 2 µM
# Setting: whole 60-bp probe, lowest competitor level
# Together with: Cbf1 competitor, 0.05 µM
# Reading: higher = stronger binding
# Constant ends, left off below: … GTCTTGATTCGCTTGACGCTGCTG
# Residues (chain): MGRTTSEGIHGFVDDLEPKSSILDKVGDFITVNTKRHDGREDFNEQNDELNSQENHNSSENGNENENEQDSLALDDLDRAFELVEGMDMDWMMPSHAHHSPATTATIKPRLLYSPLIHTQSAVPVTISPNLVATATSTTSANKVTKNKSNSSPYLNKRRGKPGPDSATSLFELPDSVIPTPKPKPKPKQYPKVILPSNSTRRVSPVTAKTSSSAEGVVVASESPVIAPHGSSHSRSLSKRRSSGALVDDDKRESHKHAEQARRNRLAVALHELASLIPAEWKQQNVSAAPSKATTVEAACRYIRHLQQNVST
Sequence,fluorescence intensity [a.u.]
CAACTTTTACGAATTCTCGTGCAAATTTTCAGCGAT,6290
CGTCCTAGTGATTGTCACATTACTTCCATGAGGAAG,5080
TGCGCAACAACTTTTCACGTGGCTTTATGTCTAGAA,15200
GTAACCCAGTAACATCAGGTGCACCATCACTACAAA,5620
AAATTACTAAGTTTTCACGTGTCGTACCCCGTATGA,14500
TTTCAGGTTCTTGTACACGTGGAACCGCCCGATATA,15000
CAACACAATTCGAGTCACGTGGAACGGCCTTCAAAT,14800
CGTCCTAGTGATTGTCACCGAACTTCCATGAGGAAG,4060
TCCGGACCCACCGATTGCGTGATGGCCTGTACAAGG,4580
ATTGTAGAATTTACCCACGTCTGTCCATCAAGAAGA,6990
TTCCATTTACACCGTCACGCTTTCCAAACCATCCAG,7190
ACAATGGATCCAAATCATGTGCCAGGGAGTGAACCC,9290
AAAGCGGTAATTTGTGCAGTGGGTGCAGATATCTAT,4630
AAACATGGGAGTGGCATCTCATAATGTTGCTGCTCC,4070
TTTGTTTTCATCTGGGTTGTGACAGTTGATGATAAC,4260
GTCTTGTCTCATTGAATGGTGGGTGTCCCCACTTCA,4710
TATACTAGGTAGTTACACGTGAAATTATTGAATCAA,13500

# Block 4
# Target: Histone acetyltransferase KAT6A, winged helix 2, GST fusion (KAT6A, Homo sapiens, UniProt Q92794, residues 85-181)
# Method: protein binding microarray
# Form: double-stranded DNA, one strand shown
# Matrix: in vitro
# Tested at: not given
# Setting: 8-mer, flanks averaged, mean of 2 arrays, mostly near background
# Reference: not given
# Reading: higher = stronger binding
# Construct (chain): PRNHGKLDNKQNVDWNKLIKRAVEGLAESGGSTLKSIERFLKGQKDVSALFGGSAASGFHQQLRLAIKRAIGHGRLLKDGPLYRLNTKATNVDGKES
Sequence,E-score
CCCTAAAG,-0.0273
GTAGTGCA,-0.104
CTCACAGC,0.077
GAGTATGA,-0.0663
GCAGTATA,-0.051
CCCCCGAA,-0.0487
AGCCGGGA,0.162
CGACCCCC,-0.177
TTTCGAAA,0.125
AATGACGG,-0.103
CGAGTCGA,0.0716
AACAAATA,-0.088
GGACGGTA,-0.129
AGGGCTTG,0.00781
CCATGGGG,0.117
GTGAGTAA,0.064
AGCTGGGA,-0.0465
CACGCGAG,0.0548
AACCTCGG,0.0918
ACTTGATA,0.0815
CCGTTCGC,0.00338
AGTCGTAA,-0.0261
AATATAAT,-0.089
ACCCCATG,-0.0323
CTAATGGA,-0.0952

# Repeated from above (block 1):
Sequence,RBNS enrichment (R)
GGGGAGUAGGUCAGUGUCAACUAACAAGCCCUGCCAGGGGCCACUGCCGCUCCUCUGGUCACAGUCCACGCAGGCCAGCCCUGGUUUCUGGAAAGAGGCCUCCCUCCCUC,0.297
AGUGCAGUAAACGUUUGUACCCAAGUCCUCACCACCAGUCAUGAGUUGGCCUGUCACUUAAGUCAUUUCUCAACAAUGGCACUCACAAAGAGCUCCACAAUCAAGAUGGC,0.379
UUUGUAUAUAAUGUCAUUUUUACGGAAACCCUUUCGGCGUGCAUAAGGAAUCACUGUGUACAAACUGGCCAAGUGCUUCUGUAGAUAACGUCAGUGGAGUAAAUAUUCGA,0.432
UGGCAGAUGUCAGGGAGGAAUAGGGUAGCUGCUUUUCAUUCCUCCUGCUUGACAAUAAUUCCCUUCCCCCAAAAUGAGCAGUGUAGGCAAGAAAAUUCUAGCCAUGACCA,0.793
UUUAAAAUACCUUCACAAGUGAACAUUACACACAGAAGUUCAUUUGGUUUUCCUUUGUUUUAUGGUGCAUAUAGCAAUAAAGACCCCCCUCCACCCUGCAACCCCCAUCC,0.855
UCACUGUGACCUUGAGAAGAUUCUUCCCAUUCUCCAUUUGUUAUCUGGGAACUUAUUAAAUGGAAACUGAAACUACUGCACCAUUUAAAAACAGGCAGCUCAUAAGAGCC,0.487
GGGGUUUGUUUUAGUUUUCUUUAGUGAAUUUAUGCUGUUUUGGGGGGCGGAUUGAGAAGAAUCUUCCGUAGCCUGAGCUGUCCCUCCUGUUUUGACGGCACAUGUGCCAG,1.24
GUGAGUGUCUUACCCCUUUCCUAUACUUUCUUGUUAUCCAUAUCAUUCUUUUGUGAGUUUUGCAGCAGUCUUGAAUAAUACAGAUUAUAACUACUGAAAGGGGAACCUUC,0.385
ACCGGGGUUUCUACUCCUGUACCCUCUGCAGGUGGAGAGAGAGAAGCUGGGCCCAGUUUGGCCAUGCCUGCUGGCACAGACGCCUUAACUGUGUGGAUGACUGUGUGACU,0.291
UGGCUUUACUGUUGGAAGUUGUCUAUUUCAACCUCAGAGUUUCCUAAUAUGGCGCUCCUGAUCUAUCUUACUCAAGUGCCCUCCCAUAUGUAUACCCCAACAUCUUUUCC,0.702
